Measured values pooled from the literature.
Lines come from different studies, so protocols differ. In brackets after ≈: the same amount, converted by molar mass.
Organism: Enterobacter cloacae

SMILES	test	system	conditions	measurement	result
Cn1c(=O)ccc2ccc(F)c(CCNC[C@H]3CN(c4cnc5c(n4)NC(=O)CO5)C(=O)O3)c21	–	–	–	MIC90	1 µg/mL (≈ 2.13 µM)
CC[C@H](C)CCCCC(=O)N[C@@H](CCN)C(=O)N[C@H](C(=O)N[C@@H](CCN)C(=O)N[C@H]1CCNC(=O)[C@H]([C@@H](C)O)NC(=O)[C@H](CCN)NC(=O)[C@H](CCN)NC(=O)[C@H](CC(C)C)NC(=O)[C@@H](CC(C)C)NC(=O)[C@H](CCN)NC1=O)[C@@H](C)O	–	BNCC 185928	–	MIC	> 64 µg/mL
COc1ccc2c(ccc3oc([N+](=O)[O-])c(C)c32)c1	REMA	–	–	MIC90	> 32 µg/mL
CS(=O)(=O)Nc1ncn(-c2cc(F)c(COc3ccc(OS(=O)(=O)F)cc3)c(F)c2)n1	–	–	–	MIC	> 50 µM
CCc1c([N+](=O)[O-])oc2ccc3ccccc3c12	REMA	–	–	MIC90	1 µg/mL (≈ 4.15 µM)
CC1=C[C@@H]2CN(C(=O)N2OS(=O)(=O)O)[C@@H]1C(N)=O	–	ATCC 2468, NDM-positive	compound alone	MIC	> 128 µg/mL
CCCCCCCCCC(=O)N[C@@H](Cc1c[nH]c2ccccc12)C(=O)N[C@H](CC(N)=O)C(=O)N[C@@H](CC(=O)O)C(=O)N[C@@H]1C(=O)NCC(=O)N[C@@H](CCCN)C(=O)N[C@@H](CC(=O)O)C(=O)N[C@H](C)C(=O)N[C@@H](CC(=O)O)C(=O)NCC(=O)N[C@H](CO)C(=O)N[C@@H]([C@H](C)CC(=O)O)C(=O)N[C@@H](CC(=O)c2ccccc2N)C(=O)O[C@@H]1C	–	clinical isolate	–	MIC	inactive
O=[N+]([O-])c1cc2c(ccc3c2ccc2cc([N+](=O)[O-])oc23)o1	REMA	–	–	MIC90	> 32 µg/mL
CC[C@H](C)[C@H](NC(=O)[C@H](C)NC(=O)[C@H](CCCCN)NC(=O)[C@H](CC(C)C)NC(=O)[C@H](C)NC(=O)[C@@H](NC(=O)[C@H](Cc1c[nH]cn1)NC(=O)[C@H](CC(C)C)NC(=O)[C@@H](NC(=O)[C@@H](NC(=O)[C@H](CCCCN)NC(=O)[C@H](C)NC(=O)[C@H](C)NC(=O)[C@H](CO)NC(=O)[C@H](CCCCN)NC(=O)[C@H](Cc1ccccc1)NC(=O)[C@@H](NC(=O)[C@H](CCCCN)NC(=O)[C@H](CC(C)C)NC(=O)[C@H](Cc1ccccc1)NC(=O)[C@H](CO)NC(=O)[C@H](CCCCN)NC(=O)[C@H](Cc1c[nH]c2ccccc12)NC(=O)[C@H](CCCCN)NC(C)=O)[C@@H](C)O)[C@@H](C)O)C(C)C)[C@@H](C)O)C(=O)N[C@@H](CO)C(=O)N[C@@H](CO)C(N)=O	–	–	geometric mean	MIC	4 µg/mL

A few entries again:
SMILES	test	system	conditions	measurement	result
CS(=O)(=O)Nc1ncn(-c2cc(F)c(COc3ccc(OS(=O)(=O)F)cc3)c(F)c2)n1	–	–	–	MIC	> 50 µM
